{"data": "Published values gathered from unrelated publications", "note": "Parts stem from different laboratories: compare values within a part only. Substitutions count along the parent as printed."}
{"data": "Set 1", "target": "CCNB3, cyclin fold, Cln2 fusion (human)", "method": "yeast growth competition, sequencing", "sample": "yeast", "setting": "strong parent motif", "relative to": "not given", "direction": "higher = stronger binding", "starting sequence": "SCAPER docking peptide (human); SNARRSLNFGGST"}
{"Change": "SNAQRSLNFGGST [R4Q]", "normalised enrichment score": -0.297}
{"Change": "SNPRRSLNFGGST [A3P]", "normalised enrichment score": 1.6}
{"Change": "INARRSLNFGGST [S1I]", "normalised enrichment score": 1.66}
{"Change": "SNARRSLNFGMST [G11M]", "normalised enrichment score": 1.3}
{"Change": "SNARWSLNFGGST [R5W]", "normalised enrichment score": 0.00991}
{"Change": "SNARRSLNFTGST [G10T]", "normalised enrichment score": 1.1}
{"Change": "SNARRSLNVGGST [F9V]", "normalised enrichment score": 0.0379}
{"Change": "CNARRSLNFGGST [S1C]", "normalised enrichment score": 1.95}
{"Change": "SNARRSLNEGGST [F9E]", "normalised enrichment score": -0.0921}
{"Change": "SRARRSLNFGGST [N2R]", "normalised enrichment score": 1.32}
{"Change": "STARRSLNFGGST [N2T]", "normalised enrichment score": 1.67}
{"Change": "SNARRSLNFGGET [S12E]", "normalised enrichment score": 1.71}
{"Change": "YNARRSLNFGGST [S1Y]", "normalised enrichment score": 1.63}
{"Change": "SNARRSLNFGGSN [T13N]", "normalised enrichment score": 1.58}
{"Change": "SNARDSLNFGGST [R5D]", "normalised enrichment score": 0.529}
{"Change": "SIARRSLNFGGST [N2I]", "normalised enrichment score": 1.39}
{"Change": "SNAPRSLNFGGST [R4P]", "normalised enrichment score": 0.0789}
{"Change": "SNARRSLNFGGYT [S12Y]", "normalised enrichment score": 1.35}
{"Change": "SNAGRSLNFGGST [R4G]", "normalised enrichment score": 0.198}
{"Change": "SNARRQLNFGGST [S6Q]", "normalised enrichment score": 0.951}
{"data": "Set 2", "target": "Histone acetyltransferase KAT6A, winged helix 2, GST fusion (KAT6A, Homo sapiens, UniProt Q92794, residues 85-181)", "method": "protein binding microarray", "molecule type": "double-stranded DNA, one strand shown", "sample": "in vitro", "concentration": "not given", "setting": "8-mer, flanks averaged, mean of 2 arrays, mostly near background", "relative to": "not given", "direction": "higher = stronger binding", "Construct (chain)": "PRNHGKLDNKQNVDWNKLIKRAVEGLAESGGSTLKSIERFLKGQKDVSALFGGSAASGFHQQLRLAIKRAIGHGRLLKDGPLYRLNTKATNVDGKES"}
{"Sequence": "ACACCTGG", "E-score": -0.0131}
{"Sequence": "ACAGTTTC", "E-score": 0.0641}
{"Sequence": "CCTGTGAC", "E-score": -0.0461}
{"Sequence": "CCGAAAAG", "E-score": 0.0505}
{"Sequence": "ACGCGCAG", "E-score": 0.119}
{"Sequence": "CCTCTACC", "E-score": -0.122}
{"Sequence": "CTACTAAC", "E-score": 0.137}
{"Sequence": "CCCAATTA", "E-score": -0.135}
{"Sequence": "AGGTGGAG", "E-score": -0.0682}
{"Sequence": "CGGGCCAG", "E-score": 0.0846}
{"Sequence": "AGCATCTG", "E-score": 0.0165}
{"Sequence": "CAAAGCCA", "E-score": -0.0607}
{"Sequence": "AGGTAGCC", "E-score": 0.00126}
{"Sequence": "GACCTAGC", "E-score": 0.0523}
{"Sequence": "TGCTTGAA", "E-score": 0.19}
{"Sequence": "ATAACCCA", "E-score": -0.157}
{"Sequence": "CTTAATAA", "E-score": 0.0943}
{"Sequence": "CCCATAAG", "E-score": -0.00968}
{"Sequence": "ACCTCCAC", "E-score": 0.0618}
{"data": "Set 3", "target": "RNA binding protein fox-1 homolog 2, RRM domain, GST-SBP tag (RBFOX2, Homo sapiens, UniProt O43251-10, residues 100-194)", "method": "RNA Bind-n-Seq", "molecule type": "RNA", "sample": "in vitro", "concentration": "365 nM", "setting": "natural RNA segment, single round, ends assumed", "relative to": "no-protein control", "direction": "higher = stronger binding", "shared flanks, not repeated": "GGGAGUUCUACAGUCCGACGAUC … UGGAAUUCUCGGGUGCCAA", "Residues (chain)": "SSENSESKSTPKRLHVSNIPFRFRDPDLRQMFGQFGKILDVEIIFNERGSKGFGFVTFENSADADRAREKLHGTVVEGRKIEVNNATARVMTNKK"}
{"Sequence": "UGUGGGUAUGGCUAAUGAGUUCUGAUUCACCCACGAAGGUUACAUUUAUGCUGAAUACAUUUGUAAAUACUCAGUUUUAUACUGUAUGUAUAUGAUUGCUACUCUAAAGG", "RBNS enrichment (R)": 0.495}
{"Sequence": "AUGAAACCCGUAUAGUUCACAAUAGAGCUCAGGGAGCCCCUAACUCUUCCAAACCACAUGGGAGACAGUUUCCUUCAUGCCCAAGCCUGAGCUCAGAUCCAGCUUGCAAC", "RBNS enrichment (R)": 0.29}
{"Sequence": "UACCUCUCGGGACAACUUUUAAAAGCUAUUUUUACCAAGUAUUUUGUAAAUGCUAAUUUUUUAGGACUCUAUUAGUCAGCAUAAAAUCUAUAUGAAGAAGAUGGACAUUU", "RBNS enrichment (R)": 0.406}
{"Sequence": "CCGCUAUUUGCAAAUGGAUGCCCCAGUGUCCGGGAUGUGUGGCCAGCUGCUGCAGGCAGGACUCCAGCGUCAGGAUGUUGCCACUUGGAGUAUGAACAAUGGGCACGGGG", "RBNS enrichment (R)": 1.41}
{"Sequence": "UGUGUAGUGUCCGCUAAGGUUGCAGUUGGUCCCCUGCCCUGACUUCAUGCCCCAAGCCUCAGCUAUUGGAAUGGCUUCCAUUCAGUAGCUUCUGUGUUGGUCCUUUGUAG", "RBNS enrichment (R)": 0.405}
{"Sequence": "UGCUUGUCACCCAGUUGCCUUUAAACCAAAUUCUAACCAGCCUAUCCCCAGGUAGGGGGACGUUGGUUAUAUUCUGUUAGAGGGGGACGGUCGUAUUUUCCUCCCUACCC", "RBNS enrichment (R)": 0.359}
{"Sequence": "CUGGGCGAGUCACAGAGUUUGCUCUUAAGUAGCAAGAGACCAAACUCACCUUGGGUGUAGGGGUCAGUAGCAGCCACUCGCCCUUGCUCCAGUCCUUUGGGAGCCUGUCA", "RBNS enrichment (R)": 0.318}
{"Sequence": "UCCAGGCAAGGAAAACUGAAGUCAUUGGCCCGAUACAAAACAUUUCCUGCAACGAAGGAGGUGGUGCCGACGUGCUGCUUCCCAUCACCAGCAGCUGCUCGACAAGGGGC", "RBNS enrichment (R)": 0.45}
{"data": "Set 4", "target": "ABI1, truncated, D143A, DHFR fusion (Arabidopsis thaliana)", "method": "DHFR PCA, deep sequencing", "sample": "yeast", "setting": "methotrexate growth selection, single substitutions", "with": "(+)-ABA 17 µM", "relative to": "wild-type fitted maximum", "direction": "higher = stronger binding", "starting sequence": "PYL1, truncated, DHFR fusion (Arabidopsis thaliana); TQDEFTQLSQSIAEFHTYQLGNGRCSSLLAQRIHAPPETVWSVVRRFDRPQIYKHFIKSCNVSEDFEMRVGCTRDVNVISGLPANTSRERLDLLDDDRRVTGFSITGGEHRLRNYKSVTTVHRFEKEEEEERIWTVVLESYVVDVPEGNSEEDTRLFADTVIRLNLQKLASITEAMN; partner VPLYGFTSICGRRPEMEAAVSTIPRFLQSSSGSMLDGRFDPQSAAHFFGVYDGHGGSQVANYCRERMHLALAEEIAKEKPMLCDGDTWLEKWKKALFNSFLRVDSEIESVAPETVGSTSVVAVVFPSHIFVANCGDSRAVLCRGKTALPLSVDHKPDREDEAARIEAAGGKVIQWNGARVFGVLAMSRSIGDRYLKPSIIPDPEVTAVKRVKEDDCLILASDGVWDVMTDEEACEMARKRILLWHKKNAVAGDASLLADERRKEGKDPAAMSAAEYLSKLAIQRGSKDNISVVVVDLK"}
{"Change": "D48I", "relative binding score [%]": 8.75}
{"Change": "N22D", "relative binding score [%]": 85.7}
{"Change": "I33T", "relative binding score [%]": 8.49}
{"Change": "T120L", "relative binding score [%]": -9.81}
{"Change": "L20P", "relative binding score [%]": 88.1}
{"Change": "D96R", "relative binding score [%]": -2.83}
{"Change": "V121E", "relative binding score [%]": -2.66}
{"Change": "Q10L", "relative binding score [%]": 68.1}
{"Change": "T6A", "relative binding score [%]": 87.8}
{"Change": "A35V", "relative binding score [%]": 38}
{"Change": "Q10W", "relative binding score [%]": 58.5}
{"Change": "P146L", "relative binding score [%]": 13.9}
{"Change": "E127S", "relative binding score [%]": 84.2}
{"Change": "R24W", "relative binding score [%]": 25.9}
{"Change": "Q167T", "relative binding score [%]": 82.1}
{"Change": "K126W", "relative binding score [%]": 74.3}
{"Change": "T17I", "relative binding score [%]": 37.9}
{"Change": "C72I", "relative binding score [%]": 72.7}
{"Change": "A175V", "relative binding score [%]": 77.2}
{"Change": "L28T", "relative binding score [%]": 58.1}
{"Change": "T101M", "relative binding score [%]": 95.4}
{"Change": "I133N", "relative binding score [%]": 103}
{"Change": "N77F", "relative binding score [%]": 87.2}
{"Change": "K116T", "relative binding score [%]": 77.1}
{"Change": "I162A", "relative binding score [%]": -0.213}
{"note": "For quick reference, copied from above (set 4):"}
{"Change": "D48I", "relative binding score [%]": 8.75}
{"Change": "N22D", "relative binding score [%]": 85.7}
{"Change": "I33T", "relative binding score [%]": 8.49}
{"Change": "T120L", "relative binding score [%]": -9.81}
{"Change": "L20P", "relative binding score [%]": 88.1}
{"Change": "D96R", "relative binding score [%]": -2.83}
{"Change": "V121E", "relative binding score [%]": -2.66}
{"Change": "Q10L", "relative binding score [%]": 68.1}
{"Change": "T6A", "relative binding score [%]": 87.8}
{"Change": "A35V", "relative binding score [%]": 38}
